Published values gathered from unrelated publications.
Each numbered part is a random draw from the data of one study; scales do not carry over between parts. Changes are numbered by the printed parent chain.

Sample 1
Target: Histone acetyltransferase KAT6A, winged helix 2, GST fusion (KAT6A, Homo sapiens, UniProt Q92794, residues 85-181)
Method: protein binding microarray
Molecule type: double-stranded DNA, one strand shown
Medium: in vitro
Tested at: not given
Setting: 8-mer, flanks averaged, mean of 2 arrays, mostly near background
Relative to: not given
Direction: higher = stronger binding
Target sequence (chain): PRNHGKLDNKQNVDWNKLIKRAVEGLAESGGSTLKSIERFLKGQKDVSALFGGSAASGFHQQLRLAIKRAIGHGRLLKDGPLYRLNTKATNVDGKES
Sequence | E-score
CATTTACA | -0.0829
CTCTCGAA | -0.0253
ATTCCCTC | -0.0139
GCACGTGC | 0.021
CCAGCGAC | 0.0318
AGAGCTCG | 0.0988
AGTCCGTA | -0.111
AGCTATTG | -0.0177
ACGTCCAT | -0.165
CCATCACG | -0.0473
ATGATGGA | -0.147
ACTAGTCC | -0.0246
GATCACTA | 0.00532

Sample 2
Target: ABI1, truncated, D143A, DHFR fusion (Arabidopsis thaliana)
Method: DHFR PCA, deep sequencing
Medium: yeast
Setting: methotrexate growth selection, single substitutions
Together with: (+)-ABA 58 µM
Relative to: wild-type fitted maximum
Direction: higher = stronger binding
Parent: PYL1, truncated, DHFR fusion (Arabidopsis thaliana); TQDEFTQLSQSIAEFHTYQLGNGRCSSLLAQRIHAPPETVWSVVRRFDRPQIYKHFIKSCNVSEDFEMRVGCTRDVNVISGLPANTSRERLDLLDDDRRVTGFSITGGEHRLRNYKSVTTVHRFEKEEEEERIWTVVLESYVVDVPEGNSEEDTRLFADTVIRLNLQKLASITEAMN
Variant | relative binding score [%]
G148P | 60.5
F56V | -0.548
V143D | -1.91
N85Q | 82.3
G23S | 81.1
E130F | 89.6
Y18L | 63.4
S87P | 7.31
F15K | 13.7
L169D | 0.0243
R90A | 50.5
E152R | 72.6
L166W | 5.08
C72M | 74.6

Sample 3
Target: RNA binding protein fox-1 homolog 2, RRM domain, GST-SBP tag (RBFOX2, Homo sapiens, UniProt O43251-10, residues 100-194)
Method: RNA Bind-n-Seq
Molecule type: RNA
Medium: in vitro
Tested at: 365 nM
Setting: natural RNA segment, single round, ends assumed
Relative to: no-protein control
Direction: higher = stronger binding
Shared flanks, not repeated: GGGAGUUCUACAGUCCGACGAUC … UGGAAUUCUCGGGUGCCAA
Residues (chain): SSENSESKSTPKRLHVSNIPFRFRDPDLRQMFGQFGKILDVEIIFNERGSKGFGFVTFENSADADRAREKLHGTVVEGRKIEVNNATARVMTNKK
Sequence | RBNS enrichment (R)
UCUGCAGCCCUCGGGACCCCACUCGGAGGGUGCCCUCUGCUCAGGCCUCCCUAGCACCUCCCCCUAACCAAAUUCUCCCUGGACCCCAUUCUGAGCUCCCCAUCACCAUG | 0.371
GUGUUGUUGGUCUGCUUGGUGUGUGUGAUCGGGAAGAUAAGCUGGGAGGGGUCUCCUGCUGGGGUCCUGAUGCCUCUGUUUCCAAACAAGGUACAGGUUCAGUCCAGACU | 0.662
UUUUGGUUUUUUAAAAUCUGUACAGUAAAAGCAACUUUUUCUGUCAAAUAAAAAUGAGAAAUGCAGUAAUUGGUCUGUAGUCUUUACUUGGGGUUAAGAGUUCUGUGAAC | 0.35
AUCAAAUCAUUUGCAUUCCCACAGCAUCCUGAAUACCGACUACCUCUUCACUUGCUAAAGCAGCUAAACUGUGAAGCUCUAAGUGGUUUGGGUUUGUUGUUUAACCUUAG | 0.364
CCCCUGUCCCUGUGAGUCUGGAGUCCGAAGGGCUUGUACCUUGUCACCUUACCUUGUCAUGCCACCCCAGGAGUAGAAGCUGGGUAAGGCCCCAUCAUCCUGACCAUCUC | 0.508
UAAGAUACUUUUCCCCACUCCUUUCUUUGUGUGUAGUGCAGCAACAGUUUGGUCUGCAUUUGUUAGAAGUGUAACUCCUAACAACCCAAAGACCUAUUUAAUAAUUGGUG | 0.303
GAGGUUCAAGGGCCUAGGUAGGUGUCUGUAGCUGGGAAUACUUGGGAACAGGGGAAGGGGAAUGUUUUCAAGACAUUUAUCCUGUUAGAAAAUCUUACAGACUAGCUUUA | 0.482
UGGCCAGAAAACUGGUGUUGAAGGCUUUUGCUCAUAUAAACAAGUGCCAUUGAGUUUCAAAUGACCAGCAAAUAUAUUUAGAACCCUUCCUGUUUUAUGUCUGUACCUCG | 0.421
CUUAGAGCACAGGCUAAGGGCCACGGCUAACAGGGACGUCCCAUUUCUUUCCUGUUCCAUCCAACUUACCCAUCAUGCAGGGACAGCUGAGGUCCACUCGUGACCUAGGC | 0.394
CACUAAAUUUCUAAAAACUGUAUUCAUGGGCUGCUGAGAUGGCUCACAAGAAAAGCACUUGCUGCCAACUGGAUGACUUGAGUUUGUUCCCUGGGACCCAAAUGGAAGGG | 0.501
UGACUAAGAAACAGAGUCCAAGCAGAGAAGGUAGGAACCCUCCAUAGCUCUCUGCCCUGAUGUGUGGGGGAACUAGGAAGAAGUCCUUUGACCUCACCAGGCCUCAUGCU | 0.917
AGGCCAAGUGGUUUGAAGUUAUUUUUAACCACAGAAGAGUUAAUUUUAUACAAAUAAAUGUAAAUGUAGUUAAAUGAUACAGUAUUUAAUAAAGUGUUCCUUUUCAAGUG | 0.612

Further values, each from its own experiment
Substance | target | assay | test system | conditions | how to read | endpoint | result
PhoQ, residues 284 288 289 292 302 303 GANMMA | PhoP, residues 12 14 15 18 19 LHHSG (Escherichia coli, UniProt P23836) | Sort-seq, refers to: YFP reporter | E. coli | PhoQ-PhoP variant library, together with: 10 µM Mg2+ | relative to: high Mg2+ state, higher = stronger signaling | fold induction | 5.75

Some of these lines once more (sample 3):
Sequence | RBNS enrichment (R)
UGGCCAGAAAACUGGUGUUGAAGGCUUUUGCUCAUAUAAACAAGUGCCAUUGAGUUUCAAAUGACCAGCAAAUAUAUUUAGAACCCUUCCUGUUUUAUGUCUGUACCUCG | 0.421
CCCCUGUCCCUGUGAGUCUGGAGUCCGAAGGGCUUGUACCUUGUCACCUUACCUUGUCAUGCCACCCCAGGAGUAGAAGCUGGGUAAGGCCCCAUCAUCCUGACCAUCUC | 0.508
UUUUGGUUUUUUAAAAUCUGUACAGUAAAAGCAACUUUUUCUGUCAAAUAAAAAUGAGAAAUGCAGUAAUUGGUCUGUAGUCUUUACUUGGGGUUAAGAGUUCUGUGAAC | 0.35
